Experimental data collected from several papers.
Lines come from different studies, so protocols differ. “And” joins repeats or separate records; there may be more than shown. ± gives the spread as reported.
HSP90AB1: Heat shock protein HSP 90-beta (HSP90AB1, Homo sapiens, UniProt P08238)
UniProt Q9NNX6, sequence (whole entry, looked up): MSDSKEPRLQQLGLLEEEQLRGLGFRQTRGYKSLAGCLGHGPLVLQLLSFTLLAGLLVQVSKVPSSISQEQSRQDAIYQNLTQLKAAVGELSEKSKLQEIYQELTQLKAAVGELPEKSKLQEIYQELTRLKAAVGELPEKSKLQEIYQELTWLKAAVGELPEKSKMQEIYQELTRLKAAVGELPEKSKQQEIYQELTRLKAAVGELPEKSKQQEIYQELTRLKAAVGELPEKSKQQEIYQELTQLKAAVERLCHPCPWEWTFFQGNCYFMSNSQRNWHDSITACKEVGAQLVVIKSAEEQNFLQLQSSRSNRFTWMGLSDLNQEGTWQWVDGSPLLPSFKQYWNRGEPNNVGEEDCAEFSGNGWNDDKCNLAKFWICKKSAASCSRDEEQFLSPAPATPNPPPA
UniProt P08238, sequence (whole entry, looked up): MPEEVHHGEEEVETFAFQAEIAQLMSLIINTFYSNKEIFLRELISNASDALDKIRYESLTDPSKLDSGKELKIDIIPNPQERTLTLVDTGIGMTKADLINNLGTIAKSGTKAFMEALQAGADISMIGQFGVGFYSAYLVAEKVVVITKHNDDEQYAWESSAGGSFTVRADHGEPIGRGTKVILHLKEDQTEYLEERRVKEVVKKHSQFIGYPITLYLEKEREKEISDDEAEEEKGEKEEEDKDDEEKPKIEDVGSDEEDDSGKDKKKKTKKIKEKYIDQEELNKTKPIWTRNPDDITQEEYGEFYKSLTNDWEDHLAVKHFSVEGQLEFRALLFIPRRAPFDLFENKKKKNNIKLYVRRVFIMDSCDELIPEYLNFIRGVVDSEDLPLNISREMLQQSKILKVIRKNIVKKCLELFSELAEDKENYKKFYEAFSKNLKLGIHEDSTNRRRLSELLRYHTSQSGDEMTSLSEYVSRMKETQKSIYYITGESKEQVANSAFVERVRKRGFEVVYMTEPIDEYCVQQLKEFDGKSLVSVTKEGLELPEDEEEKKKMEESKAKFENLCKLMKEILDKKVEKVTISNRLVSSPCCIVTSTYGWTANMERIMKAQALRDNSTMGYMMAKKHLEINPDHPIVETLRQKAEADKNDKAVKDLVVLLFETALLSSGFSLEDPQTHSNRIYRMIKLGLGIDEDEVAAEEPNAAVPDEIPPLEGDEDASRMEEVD
UniProt Q9UNU6, sequence (whole entry, unmodified, looked up): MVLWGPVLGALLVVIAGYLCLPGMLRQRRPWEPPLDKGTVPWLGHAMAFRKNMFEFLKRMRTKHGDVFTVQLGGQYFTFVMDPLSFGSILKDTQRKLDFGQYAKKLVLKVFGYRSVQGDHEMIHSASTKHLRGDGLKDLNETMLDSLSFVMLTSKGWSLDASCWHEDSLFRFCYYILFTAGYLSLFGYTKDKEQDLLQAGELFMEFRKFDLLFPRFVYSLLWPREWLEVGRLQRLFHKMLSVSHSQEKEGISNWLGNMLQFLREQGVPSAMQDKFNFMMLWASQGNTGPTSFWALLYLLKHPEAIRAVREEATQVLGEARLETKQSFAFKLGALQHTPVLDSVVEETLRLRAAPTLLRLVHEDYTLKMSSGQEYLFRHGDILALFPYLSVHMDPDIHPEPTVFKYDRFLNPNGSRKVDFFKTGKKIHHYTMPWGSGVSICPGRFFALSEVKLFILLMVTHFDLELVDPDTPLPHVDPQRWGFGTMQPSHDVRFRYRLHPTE
UniProt P42684, sequence (whole entry, looked up): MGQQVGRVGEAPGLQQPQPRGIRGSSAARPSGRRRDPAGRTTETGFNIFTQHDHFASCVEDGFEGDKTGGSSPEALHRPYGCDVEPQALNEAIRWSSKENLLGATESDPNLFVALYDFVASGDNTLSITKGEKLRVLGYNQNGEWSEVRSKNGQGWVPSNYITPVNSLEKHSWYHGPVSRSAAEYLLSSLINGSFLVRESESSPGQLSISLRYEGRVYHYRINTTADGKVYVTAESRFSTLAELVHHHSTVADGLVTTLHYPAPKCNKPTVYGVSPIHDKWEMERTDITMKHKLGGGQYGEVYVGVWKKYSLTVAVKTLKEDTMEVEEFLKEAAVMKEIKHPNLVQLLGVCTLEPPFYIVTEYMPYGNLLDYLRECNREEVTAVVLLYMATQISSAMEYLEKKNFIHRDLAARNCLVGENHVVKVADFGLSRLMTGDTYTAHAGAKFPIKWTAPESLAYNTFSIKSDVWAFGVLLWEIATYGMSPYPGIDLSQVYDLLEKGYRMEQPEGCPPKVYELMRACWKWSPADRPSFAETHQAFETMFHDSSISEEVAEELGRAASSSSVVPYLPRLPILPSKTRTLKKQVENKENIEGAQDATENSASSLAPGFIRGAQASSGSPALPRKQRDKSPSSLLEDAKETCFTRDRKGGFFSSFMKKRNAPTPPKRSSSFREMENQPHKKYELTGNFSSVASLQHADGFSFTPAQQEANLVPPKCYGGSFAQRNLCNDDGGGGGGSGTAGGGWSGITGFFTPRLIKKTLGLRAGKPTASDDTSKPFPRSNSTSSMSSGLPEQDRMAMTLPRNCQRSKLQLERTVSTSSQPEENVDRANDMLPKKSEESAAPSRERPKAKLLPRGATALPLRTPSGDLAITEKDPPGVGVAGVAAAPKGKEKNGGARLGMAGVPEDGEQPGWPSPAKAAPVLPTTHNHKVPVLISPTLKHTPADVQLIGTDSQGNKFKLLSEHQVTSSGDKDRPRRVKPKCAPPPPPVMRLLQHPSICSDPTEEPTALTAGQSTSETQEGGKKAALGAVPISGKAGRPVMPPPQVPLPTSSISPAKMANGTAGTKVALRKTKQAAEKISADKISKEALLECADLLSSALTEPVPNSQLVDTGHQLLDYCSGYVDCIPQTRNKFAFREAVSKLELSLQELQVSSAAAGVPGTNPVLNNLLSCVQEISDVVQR
UniProt Q9HB29, sequence (whole entry, looked up): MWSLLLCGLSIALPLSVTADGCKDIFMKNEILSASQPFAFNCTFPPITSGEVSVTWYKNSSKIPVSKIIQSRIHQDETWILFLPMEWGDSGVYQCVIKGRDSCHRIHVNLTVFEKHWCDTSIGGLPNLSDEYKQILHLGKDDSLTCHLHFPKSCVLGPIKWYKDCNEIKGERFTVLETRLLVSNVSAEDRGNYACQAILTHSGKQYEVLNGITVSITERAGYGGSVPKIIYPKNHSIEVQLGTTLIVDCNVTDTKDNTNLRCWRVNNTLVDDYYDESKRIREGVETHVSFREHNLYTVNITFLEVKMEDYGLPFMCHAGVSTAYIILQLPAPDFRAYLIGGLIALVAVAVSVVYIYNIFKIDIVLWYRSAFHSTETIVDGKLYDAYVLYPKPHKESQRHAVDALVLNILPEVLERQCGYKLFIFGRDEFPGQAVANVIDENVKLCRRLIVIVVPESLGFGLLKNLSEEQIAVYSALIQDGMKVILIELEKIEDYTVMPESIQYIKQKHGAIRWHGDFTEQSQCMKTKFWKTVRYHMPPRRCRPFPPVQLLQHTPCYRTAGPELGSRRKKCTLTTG
UniProt Q15831, sequence (whole entry, looked up): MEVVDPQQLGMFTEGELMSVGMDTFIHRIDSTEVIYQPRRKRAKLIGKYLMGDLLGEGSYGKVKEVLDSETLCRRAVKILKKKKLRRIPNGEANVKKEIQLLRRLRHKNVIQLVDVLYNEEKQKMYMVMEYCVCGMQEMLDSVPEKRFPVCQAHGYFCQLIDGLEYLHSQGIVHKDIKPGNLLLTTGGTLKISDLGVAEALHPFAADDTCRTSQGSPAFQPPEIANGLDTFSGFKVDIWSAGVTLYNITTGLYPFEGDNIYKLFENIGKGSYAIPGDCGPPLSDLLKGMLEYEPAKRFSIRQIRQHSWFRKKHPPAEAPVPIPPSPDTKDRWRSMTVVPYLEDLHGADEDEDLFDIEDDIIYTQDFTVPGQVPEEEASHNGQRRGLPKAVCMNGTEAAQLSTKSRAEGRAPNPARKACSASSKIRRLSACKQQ

SMILES = CC[C@H](C)[C@H](NC(=O)[C@H](CCC(=O)O)NC(=O)[C@H](CCCNC(=N)N)NC(=O)[C@H](C)NC(=O)[C@H](C)NC(=O)[C@H](CCC(N)=O)NC(=O)[C@H](CCC(=O)O)NC(=O)[C@H](CCC(=O)O)NC(C)=O)C(=O)NCC(=O)N[C@@H](C)C(=O)N[C@@H](CCC(N)=O)C(=O)N[C@@H](CC(C)C)C(=O)N[C@@H](CCCNC(=N)N)C(=O)N[C@@H](CCCNC(=N)N)C(=O)N[C@@H](CCSC)C(=O)N[C@@H](C)C(=O)N[C@@H](CC(=O)O)C(=O)N[C@@H](CC(=O)O)C(=O)N[C@@H](CC(C)C)C(=O)N[C@@H](CC(N)=O)C(=O)N[C@@H](C)C(=O)N[C@@H](CCC(N)=O)C(=O)N[C@@H](Cc1ccc(O)cc1)C(=O)N[C@@H](CCC(=O)O)C(=O)N[C@@H](CCCNC(=N)N)C(N)=O; tested on = Bcl-2-like protein 1, C-terminal truncated (BCL2L1, Homo sapiens, UniProt Q07817); test = binding, ITC; conditions = pH 7.4, 25 °C; measurement = Kd; value = 3 ± 1 nM
SMILES = CC(C)(C)C(=O)OCOP(=O)(OCOC(=O)C(C)(C)C)C1CCCN(O)C1=O (stereo not shown); tested on = NCI-H226; measurement = log GI50; value = -6 log M
SMILES = C=C1[C@@H](O)C[C@H]2C(C)(C)C[C@H](C)C[C@]2(C)[C@H]1C[C@H](O)[C@H]1CC(=O)NC1=O; tested on = ribosome, Saccharomyces cerevisiae, 80S, E site; test = smFRET; conditions = pH 7.5, 23 °C, 5 mM MgCl2; measurement = Kd; value = 1400 ± 750 nM
SMILES = CC(C)C[C@H](NC(=O)[C@H](CCCNC(=N)N)NC(=O)[C@H](CO)NC(=O)[C@H](CC(N)=O)NC(=O)c1ccc2c(c1)C(=O)OC21c2ccc(N(C)C)cc2Oc2cc(N(C)C)ccc21)C(=O)NCC(=O)N[C@@H](CC(N)=O)C(=O)NCC(=O)N[C@H](C(=O)N[C@@H](CC(C)C)C(=O)N[C@@H](Cc1ccc(OP(=O)(O)O)cc1)C(=O)N[C@@H](C)C(=O)N[C@@H](CO)C(=O)N[C@H](C(=O)N[C@@H](CC(N)=O)C(=O)N1CCC[C@H]1C(=O)N[C@@H](CCC(=O)O)C(=O)N[C@@H](Cc1ccc(O)cc1)C(=O)N[C@@H](CC(=O)O)C(=O)O)C(C)C)C(C)C; tested on = Tyrosine-protein kinase ABL2, SH2 domain (ABL2, Homo sapiens, UniProt P42684); test = binding; measurement = Kd; value = 48 nM
SMILES = C[C@@]12C(=O)CC[C@H]1[C@@H]1CC=C3C[C@@H](O)CC[C@]3(C)[C@H]1C=C2c1cccnc1; tested on = 7-alpha-hydroxycholest-4-en-3-one 12-alpha-hydroxylase (Homo sapiens, UniProt Q9UNU6, W281F); test = binding, spectral titration; measurement = Kd; value = ~32000 nM and 32500 nM
SMILES = CN(C)[C@H]1C[C@@]23CC[C@@]4(O2)C(=CC[C@]2(C)[C@@H](c5ccc6ccncc6c5)CC[C@H]24)C=C3[C@@H](O)[C@@H]1O; tested on = STK11 (Homo sapiens, UniProt Q15831); test = ATP probe labelling, inhibitor, KiNativ profiling; conditions = 0.1 µM; measurement = inhibition; value = 4.3%
SMILES = CC(C)[C@@H]1NC(=O)[C@H](Cc2ccccc2)NC(=O)CSC[C@@H](C(N)=O)NC(=O)[C@H](CCC(=O)O)NC(=O)[C@H](CO)NC(=O)[C@H](Cc2c[nH]c3ccccc23)NC(=O)[C@H](C2CCCCC2)NC(=O)[C@H](C(C)C)NC(=O)[C@H](Cc2ccc(O)cc2)NC(=O)[C@H](CC(=O)O)NC(=O)[C@H](Cc2c[nH]c3ccccc23)NC(=O)[C@H](Cc2ccc(O)cc2)NC(=O)[C@H](Cc2c[nH]c3ccccc23)NC(=O)[C@H](CCC(=O)O)NC1=O; tested on = Interleukin-1 receptor-like 2, D1-D2 domains (IL1RL2, Homo sapiens, UniProt Q9HB29); test = SPR; conditions = IL-36R domains D1-D2; measurement = Kd; value = 72 ± 16 nM
SMILES = COc1ccccc1-c1n[nH]c2nc(NC3CCN(C(=O)Cc4ccc(F)cc4F)CC3)ncc12; test = bead binding, competition bead pull-down, measured: LINJ.32.3470; test system = Leishmania donovani extract; conditions = 10 µM; how to read = reference: vehicle; measurement = relative abundance; value = 0.95
SMILES = C=C1NC(=O)[C@H](CCSC)NC(=O)[C@H](Cc2ccc(O)cc2)NC(=O)[C@H](Cc2c[nH]cn2)NC(=O)CNC(=O)[C@H](CCC(N)=O)NC(=O)[C@H](CC(N)=O)NC(=O)[C@H](Cc2c[nH]cn2)NC(=O)[C@H]([C@@H](C)O)NC(=O)[C@H](CCC(N)=O)NC(=O)[C@H](CO)NC(=O)[C@H](Cc2c[nH]c3ccccc23)NC(=O)[C@H](Cc2c[nH]c3ccccc23)NC(=O)c2ccc(-c3nc(C(=O)OC)cs3)nc2-c2csc1n2; tested on = TNIK (Homo sapiens, UniProt Q9UKE5); test = binding, SPR; measurement = Kd; value = 53 nM
SMILES = CCCc1cc2cc(-n3nc(CC)c4c3CC(C)(C)CC4=O)cc(N3CCC(O)CC3)c2c(=O)[nH]1; tested on = HSP90AB1; test = fluorescence polarization; conditions = 24 h, 4 °C, added: FITC-geldanamycin tracer; measurement = Kd; value = 225 nM
SMILES = N=C(N)NCc1cn([C@@H]2[C@@H](OCCn3cc(-c4cc(OCCOCCO)c(C#Cc5cc(OCCOCCO)c(C#Cc6cc(OCCOCCO)c(-c7cn(CCO[C@H]8O[C@H](CO)[C@@H](O)[C@H](O)[C@@H]8n8cc(CNC(=N)N)nn8)nn7)cc6OCCOCCO)cc5OCCOCCO)cc4OCCOCCO)nn3)O[C@H](CO)[C@@H](O)[C@@H]2O)nn1; tested on = CD209 antigen (CD209, Homo sapiens, UniProt Q9NNX6); test = binding; measurement = Kd; value = 10300 nM and 9310 nM
SMILES = CCCc1cc2cc(-n3nc(C4CC4)c4c3CC(C)(C)CC4=O)cc(N3CCC(O)CC3)c2c(=O)[nH]1; tested on = HSP90AB1; test = fluorescence polarization; conditions = 24 h, 4 °C, added: FITC-geldanamycin tracer; measurement = Kd; value = 785 nM
SMILES = O=C1NC2(CC2)COc2ncc(F)cc2[C@H]2COCCN2c2ccn3ncc1c3n2; test system = Sprague-Dawley rat, female, serum; conditions = oral, 5 mg/kg/day, end of treatment, 4-week subacute toxicity; measurement = serum sodium; value = 145 ± 1 mmol/L

Repeated from above:
SMILES = CC(C)(C)C(=O)OCOP(=O)(OCOC(=O)C(C)(C)C)C1CCCN(O)C1=O (stereo not shown); tested on = NCI-H226; measurement = log GI50; value = -6 log M
